Published values collected from several papers.
Compare with care: the assays were run in different laboratories.
TMPRSS2: Transmembrane protease serine 2 (TMPRSS2, Homo sapiens, UniProt O15393)
Chain of UniProt O15393 (whole entry, looked up): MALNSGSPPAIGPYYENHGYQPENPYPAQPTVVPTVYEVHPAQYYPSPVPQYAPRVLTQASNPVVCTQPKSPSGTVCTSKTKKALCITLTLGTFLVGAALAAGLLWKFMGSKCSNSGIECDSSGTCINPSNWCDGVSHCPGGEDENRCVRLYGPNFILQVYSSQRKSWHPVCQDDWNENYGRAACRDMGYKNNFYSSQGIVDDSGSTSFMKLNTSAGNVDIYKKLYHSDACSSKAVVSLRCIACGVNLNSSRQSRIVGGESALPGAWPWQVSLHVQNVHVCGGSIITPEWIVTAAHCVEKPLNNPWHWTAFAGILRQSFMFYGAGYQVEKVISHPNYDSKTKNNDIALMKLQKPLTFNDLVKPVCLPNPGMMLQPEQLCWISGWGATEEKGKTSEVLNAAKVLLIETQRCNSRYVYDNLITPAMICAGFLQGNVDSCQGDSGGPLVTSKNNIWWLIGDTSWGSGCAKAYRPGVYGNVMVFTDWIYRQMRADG
Chain of UniProt P52333 (whole entry, looked up): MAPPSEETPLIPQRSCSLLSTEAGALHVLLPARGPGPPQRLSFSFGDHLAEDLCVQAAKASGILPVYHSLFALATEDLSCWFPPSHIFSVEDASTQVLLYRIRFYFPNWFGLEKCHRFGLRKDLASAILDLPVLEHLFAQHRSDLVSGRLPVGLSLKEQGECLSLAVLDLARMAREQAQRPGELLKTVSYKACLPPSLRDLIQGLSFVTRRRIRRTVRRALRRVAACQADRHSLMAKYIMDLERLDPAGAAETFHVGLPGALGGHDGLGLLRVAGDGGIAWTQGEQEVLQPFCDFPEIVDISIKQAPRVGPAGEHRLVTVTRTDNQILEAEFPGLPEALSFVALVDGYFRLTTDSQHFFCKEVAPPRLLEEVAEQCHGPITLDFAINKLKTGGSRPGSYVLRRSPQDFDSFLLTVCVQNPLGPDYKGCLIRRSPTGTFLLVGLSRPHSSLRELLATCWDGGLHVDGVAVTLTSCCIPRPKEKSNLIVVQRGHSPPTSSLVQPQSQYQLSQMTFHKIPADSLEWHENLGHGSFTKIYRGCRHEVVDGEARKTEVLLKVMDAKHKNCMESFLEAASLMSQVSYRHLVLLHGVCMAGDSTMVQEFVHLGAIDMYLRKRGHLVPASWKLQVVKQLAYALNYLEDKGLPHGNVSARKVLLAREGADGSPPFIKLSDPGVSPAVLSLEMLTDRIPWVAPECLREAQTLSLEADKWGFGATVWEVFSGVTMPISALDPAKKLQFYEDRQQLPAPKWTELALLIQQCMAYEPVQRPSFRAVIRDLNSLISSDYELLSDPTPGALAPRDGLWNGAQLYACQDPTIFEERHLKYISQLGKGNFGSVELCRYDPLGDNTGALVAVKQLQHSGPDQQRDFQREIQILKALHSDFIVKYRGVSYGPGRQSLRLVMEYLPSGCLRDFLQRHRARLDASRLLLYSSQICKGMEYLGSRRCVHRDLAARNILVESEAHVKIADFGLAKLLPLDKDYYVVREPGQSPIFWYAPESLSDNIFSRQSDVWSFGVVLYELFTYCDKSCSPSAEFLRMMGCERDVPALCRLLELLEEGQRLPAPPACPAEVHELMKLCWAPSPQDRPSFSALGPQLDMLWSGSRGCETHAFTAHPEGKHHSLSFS
Chain of UniProt P07711 (whole entry, looked up): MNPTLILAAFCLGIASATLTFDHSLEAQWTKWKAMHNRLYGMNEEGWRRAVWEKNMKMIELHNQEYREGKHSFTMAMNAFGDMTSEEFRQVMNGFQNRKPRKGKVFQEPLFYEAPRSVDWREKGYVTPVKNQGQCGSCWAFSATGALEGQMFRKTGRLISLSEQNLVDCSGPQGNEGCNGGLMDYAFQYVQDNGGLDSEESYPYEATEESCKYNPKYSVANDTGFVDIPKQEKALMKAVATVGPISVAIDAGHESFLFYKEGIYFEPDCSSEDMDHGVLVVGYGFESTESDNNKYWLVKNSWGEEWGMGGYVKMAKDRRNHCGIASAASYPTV
Chain of UniProt Q9UM73 (whole entry, looked up): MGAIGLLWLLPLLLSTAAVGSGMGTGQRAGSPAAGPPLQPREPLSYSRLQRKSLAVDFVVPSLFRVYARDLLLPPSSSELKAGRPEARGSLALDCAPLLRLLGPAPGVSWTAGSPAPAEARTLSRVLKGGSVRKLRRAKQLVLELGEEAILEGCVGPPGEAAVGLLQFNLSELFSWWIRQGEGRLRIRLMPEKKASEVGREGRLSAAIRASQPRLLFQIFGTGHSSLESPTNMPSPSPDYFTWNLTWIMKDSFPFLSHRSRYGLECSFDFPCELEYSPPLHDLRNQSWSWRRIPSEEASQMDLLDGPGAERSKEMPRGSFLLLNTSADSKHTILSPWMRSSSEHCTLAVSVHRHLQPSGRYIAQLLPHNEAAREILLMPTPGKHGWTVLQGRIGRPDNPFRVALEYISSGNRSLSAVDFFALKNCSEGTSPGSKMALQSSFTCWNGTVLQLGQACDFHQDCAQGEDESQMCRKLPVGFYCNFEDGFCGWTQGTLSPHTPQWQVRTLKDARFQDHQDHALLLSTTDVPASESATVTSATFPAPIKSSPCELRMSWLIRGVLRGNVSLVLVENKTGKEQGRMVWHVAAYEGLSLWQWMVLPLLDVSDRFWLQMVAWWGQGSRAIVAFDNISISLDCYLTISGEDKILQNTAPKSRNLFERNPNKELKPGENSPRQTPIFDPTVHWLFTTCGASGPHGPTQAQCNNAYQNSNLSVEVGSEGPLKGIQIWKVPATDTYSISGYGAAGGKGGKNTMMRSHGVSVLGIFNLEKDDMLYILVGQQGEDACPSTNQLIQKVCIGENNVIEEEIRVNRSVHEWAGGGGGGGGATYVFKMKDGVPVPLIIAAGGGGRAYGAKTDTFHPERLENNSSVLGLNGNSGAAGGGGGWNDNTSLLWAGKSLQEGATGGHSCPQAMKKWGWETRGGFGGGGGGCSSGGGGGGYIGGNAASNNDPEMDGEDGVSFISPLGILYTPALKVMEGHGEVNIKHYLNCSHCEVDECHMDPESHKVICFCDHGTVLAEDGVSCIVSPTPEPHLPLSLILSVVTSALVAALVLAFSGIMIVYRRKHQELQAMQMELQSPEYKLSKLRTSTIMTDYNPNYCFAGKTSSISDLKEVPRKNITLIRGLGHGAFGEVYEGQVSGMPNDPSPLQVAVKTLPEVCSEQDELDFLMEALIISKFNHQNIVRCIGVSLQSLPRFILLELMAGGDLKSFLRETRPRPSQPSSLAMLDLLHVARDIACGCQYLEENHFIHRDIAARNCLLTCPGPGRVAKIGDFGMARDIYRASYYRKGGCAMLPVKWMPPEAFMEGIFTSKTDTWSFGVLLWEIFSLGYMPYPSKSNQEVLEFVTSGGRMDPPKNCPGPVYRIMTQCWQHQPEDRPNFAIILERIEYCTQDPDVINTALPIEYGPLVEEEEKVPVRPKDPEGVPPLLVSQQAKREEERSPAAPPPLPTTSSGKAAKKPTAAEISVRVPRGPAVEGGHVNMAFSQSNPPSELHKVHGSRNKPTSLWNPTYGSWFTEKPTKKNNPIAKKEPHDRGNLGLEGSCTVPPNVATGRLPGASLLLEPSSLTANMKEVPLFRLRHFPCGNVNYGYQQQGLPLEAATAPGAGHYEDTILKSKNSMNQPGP
Chain of UniProt P10721 (whole entry, unmodified, looked up): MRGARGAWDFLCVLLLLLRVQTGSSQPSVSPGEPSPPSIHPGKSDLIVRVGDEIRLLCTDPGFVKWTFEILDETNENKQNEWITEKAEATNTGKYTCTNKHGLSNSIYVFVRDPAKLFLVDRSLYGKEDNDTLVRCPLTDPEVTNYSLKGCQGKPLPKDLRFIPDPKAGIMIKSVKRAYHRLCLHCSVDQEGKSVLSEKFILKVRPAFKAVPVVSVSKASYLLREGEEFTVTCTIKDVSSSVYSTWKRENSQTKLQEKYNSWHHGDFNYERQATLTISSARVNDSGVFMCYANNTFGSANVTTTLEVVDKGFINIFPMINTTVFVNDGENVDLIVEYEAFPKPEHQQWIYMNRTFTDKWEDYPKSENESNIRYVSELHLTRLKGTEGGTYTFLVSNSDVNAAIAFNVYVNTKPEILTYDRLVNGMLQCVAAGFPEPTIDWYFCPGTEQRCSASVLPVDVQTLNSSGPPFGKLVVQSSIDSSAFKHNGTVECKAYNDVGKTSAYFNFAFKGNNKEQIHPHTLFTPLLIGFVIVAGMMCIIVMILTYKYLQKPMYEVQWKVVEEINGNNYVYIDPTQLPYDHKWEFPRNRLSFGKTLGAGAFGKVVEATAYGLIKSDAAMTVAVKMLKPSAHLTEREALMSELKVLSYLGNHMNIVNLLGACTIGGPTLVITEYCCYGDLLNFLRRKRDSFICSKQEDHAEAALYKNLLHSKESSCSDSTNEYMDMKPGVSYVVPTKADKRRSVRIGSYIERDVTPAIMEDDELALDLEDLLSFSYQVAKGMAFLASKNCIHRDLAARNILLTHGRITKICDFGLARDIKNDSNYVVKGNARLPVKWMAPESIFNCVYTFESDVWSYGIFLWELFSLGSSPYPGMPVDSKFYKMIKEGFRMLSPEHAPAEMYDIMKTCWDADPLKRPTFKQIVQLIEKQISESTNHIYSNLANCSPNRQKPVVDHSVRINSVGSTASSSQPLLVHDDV
Chain of UniProt P28221 (whole entry, looked up): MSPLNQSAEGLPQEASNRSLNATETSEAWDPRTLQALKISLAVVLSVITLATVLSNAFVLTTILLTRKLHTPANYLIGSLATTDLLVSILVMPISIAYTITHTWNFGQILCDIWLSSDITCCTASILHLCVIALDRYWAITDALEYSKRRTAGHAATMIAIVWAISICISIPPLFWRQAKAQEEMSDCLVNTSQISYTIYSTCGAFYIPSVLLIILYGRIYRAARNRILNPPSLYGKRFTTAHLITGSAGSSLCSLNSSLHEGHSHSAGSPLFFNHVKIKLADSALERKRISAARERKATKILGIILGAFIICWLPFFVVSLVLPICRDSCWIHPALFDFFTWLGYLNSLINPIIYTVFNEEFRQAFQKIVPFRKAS

CCCCCCCc1cc(=O)c2ccccc2[nH]1
remaining activity (Procathepsin L (CTSL, Homo sapiens, UniProt P07711); enzyme activity, inhibitor; 100 µM): 70.2%

COC(=O)c1cc(-c2cccc(NC(=O)Nc3ccc(F)cc3)c2)on1
MIC (Klebsiella pneumoniae; microbial growth, broth dilution; BAA1705): > 64 µg/mL

Nc1ncc(-c2nc(N3CCOCC3)nc(N3CCOCC3)n2)c(C(F)F)n1
remaining binding (ALK (Homo sapiens, UniProt Q9UM73); cell-free assay, competition with immobilised ligand; 10 µM): 26%

CN1CCC[C@H]1c1cccnc1
inhibition (HTR1D (Homo sapiens, UniProt P28221); cell-free assay; 50 µM): -18.1%

C#Cc1n[nH]c2c(-c3cn([C@@H](C)c4ccccn4)c(=O)[nH]c3=O)cc(F)cc12
inhibition (JAK3 (Homo sapiens, UniProt P52333); enzyme activity, inhibitor; 0.1 µM): -3.2%

COc1ccc(-n2ccnc2SCC(=O)Nc2cccc(C(F)(F)F)c2)c(OC)c1
IC50 (PFF0160c (Plasmodium falciparum, UniProt Q08210, E182D); enzyme activity, inhibitor, absorbance): > 10000 nM

Cc1nn(C)cc1-c1nc2c(N3CCN(Cc4ccc(Cl)cc4)CC3)c(Cl)cnc2[nH]1
remaining binding (KIT (Homo sapiens, UniProt P10721, T670I/V559D); binding, competition with immobilised ligand; 1 µM): 19%

CCN(CC)CC#Cc1ccc2[nH]c(C)c(Cl)c(=O)c2c1
IC50 (PFF0160c (Plasmodium falciparum, UniProt Q08210); enzyme activity, inhibitor, absorbance): 652 nM

CC(=O)N[C@@H](CCC(N)=O)C(=O)N[C@@H](Cc1ccccc1)C(=O)N[C@H](CCCNC(=N)N)C(=O)c1nccs1
activity vs control (TMPRSS2; enzyme activity, inhibitor; 1 nM): 55%

COc1ncccc1-c1cnn2ccc(N3CCN(C(=O)OC(C)C)CC3)nc12
remaining binding (HUNK (Homo sapiens, UniProt P57058); binding, competition with immobilised ligand; 1 µM): 56%

COCCC(=O)N[C@@H](CCC(N)=O)C(=O)N[C@@H](Cc1ccccc1)C(=O)N[C@H](CCCNC(=N)N)C(=O)c1nc2ccccc2s1
activity vs control (TMPRSS2; enzyme activity, inhibitor; 1 nM): 27%

CC(C)CC(=O)OC[C@H]1O[C@@](C#N)(c2ccc3c(N)ncnn23)[C@H](O)[C@@H]1O
inhibition (ADRB1 (Homo sapiens, UniProt P08588); cell-free assay; 20 µM): 8%

N=C(N)NCCCCC(=O)N[C@@H](CCC(N)=O)C(=O)N[C@@H](Cc1ccccc1)C(=O)N[C@@H](CCNC(=N)N)CC(=O)c1nc2ccccc2s1
activity vs control (TMPRSS2; enzyme activity, inhibitor; 1 nM): 96%

[2H]c1c([2H])c([C@]2([2H])CCCN2C(=O)C(C)(C)Oc2ccc3cn[nH]c3c2)c([2H])c([2H])c1C([2H])([2H])[2H]
remaining binding (IGF1R (Homo sapiens, UniProt P08069); binding, competition with immobilised ligand; 1 µM): 81%
